Measurements of several laboratories.
Every numbered part comes from another study and shows a few of its results, in no order. Positions count from the first letter of the parent shown.

Set 1
Target: Ras GTPase-activating protein-binding protein 1, C-terminal RGG region (G3BP1, Homo sapiens, UniProt Q13283)
Sequence of UniProt Q13283 (whole entry, looked up): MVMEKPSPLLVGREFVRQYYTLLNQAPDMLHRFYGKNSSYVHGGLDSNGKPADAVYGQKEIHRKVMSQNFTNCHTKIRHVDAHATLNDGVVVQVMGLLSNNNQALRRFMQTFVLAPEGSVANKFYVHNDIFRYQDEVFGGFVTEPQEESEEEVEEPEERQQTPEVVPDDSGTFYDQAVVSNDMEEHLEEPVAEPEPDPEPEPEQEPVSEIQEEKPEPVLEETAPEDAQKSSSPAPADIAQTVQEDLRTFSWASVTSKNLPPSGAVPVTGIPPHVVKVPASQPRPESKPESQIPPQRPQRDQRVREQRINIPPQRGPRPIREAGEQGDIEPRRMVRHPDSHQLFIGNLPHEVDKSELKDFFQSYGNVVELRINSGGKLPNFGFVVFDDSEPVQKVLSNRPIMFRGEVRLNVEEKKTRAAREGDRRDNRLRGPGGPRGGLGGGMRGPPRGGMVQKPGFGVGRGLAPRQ
Method: RNA Bind-n-Seq
Form: RNA
Sample: in vitro
Concentration: 1 µM
Notes: whole 134-nt RNA, ends assumed
With: 150 mM KCl
Relative to: input library
Reading: higher = stronger binding
Constant ends, left off below: GGGAGUUCUACAGUCCGACGAUC … UGGAAUUCUCGGGUGUCAAGG
Strand | log2 enrichment
AAUUCUCAUUUCUCGACAUAAAGCCUUGUCUAAAGUGAGAUGUUUUCCAGGUCAUACAUAGGUUUCUCCCUGGGGUAAUUGGAAGUUCUU | -1.95
GCAGGAAGUAAAAACAAAUGGAAAUGCUUCGGAUAGUGGCAGGCGUGGGGGUUGCUAAGGAAAGGGUGGGAUGGGAGUGGGUAAAGAGUU | 1.77
CAAGUCCUGUGCUACACAUCGUAUGUACCGAAUCGGGAAAAAGGGAGGGAAAGGGAAAGUAUUAUGUUACGCCGUUCGGAUCUGCACUUC | 1.77
UGGCCCUGGUGGCAUGCGGGGAGGAAGAGGUGGCCUCAAGGAUCGUGGUGGUCCCGGUGGAAUGUUCAGAGGUGGCCGUGGUGGAGACAG | 2
UGGGAGGUGGAUUUUGUUUAUUUUUUUAGCUCAUUUCUAGGGGUGGGAAUUUUUUUUUAAUAUGUGUCAUGAAUAAAGUUGUUUUUGAAA | 3.8
CUCAAGUCCUGUGCUACACAUCGUAUGUACCGAAUCGGUGGUUUGGUUUUUGGAAAGUAUUAUGUUACGCCGUUCGGAUCUGCACUUCCA | -0.876
ACCAUGCAGGUGGGCAUCUUUGGGAAGUGGGGCAAGGGGGGGAUAGGGAGGGGGGUAACACUUUGGGAACAGGUGGUCCCAGGUCGUCUC | 1.67
AAGAUUUAGAGAUGAAUUAAAUUUAAUUAGGGGUUGCUAAGAAGCGAGCACUGACCAGAUAAGAAUGCUGGUUUUCCUAAAUGCAGUGAA | -1.48
UGGGAGGUGGAUUUAGUUUAUUUUUUUAGCUCAUUUCCAGGGGUGGGAAUUUUUUUUUAAUAUGUGUCAUGAAUAAAGUUGUUUUUGAAA | 2.97
UUAAAACAUGGCAACUUGUAAUUGUUUUCUUUCUUAGGAACAUCAUUCAUGGCAGUGAUUCAGUAAAAAGUGCUGAAAAAGAAAUCAGCC | -0.712
AAGACAUUUGUUGUAUUUAUGGUUGUAACUGUACAUGCUUAUCAGGAUGAGACUGAAAGAAGGUAGGGCAAAAAUGGUUGAAUCUAUUUU | -1.09
ACCAUGCAGGUGGGCAUCUUUGGGAAGUGGGGCAAGGGGGGGAUAGGGAGGGGGGUAACACUUUGGGAACAGGUGGUCACAGGUCGUUUC | 2.16
CUCAAGUCCUGUGCUACACAUCGUAUGUACCGAAUCGGUUUGGUUUUUGGUGGAAAGUAUUAUGUUACGCCGUUCGGAUCUGCACUUCCA | -0.998
CCAUAGACCCCUUUCUUCUCCCCUUCCCCACGGUAGGAACAUAGCGUGUUUAUAUUUUAUGGCCAAACUAUUUUGAAUUUUGUUGUCCGG | 0.0738

Set 2
Target: Sal-like protein 4, full length isoform A (SALL4, Homo sapiens, UniProt Q9UJQ4, residues 1-1053)
Sequence of UniProt Q9UJQ4 (whole entry, looked up): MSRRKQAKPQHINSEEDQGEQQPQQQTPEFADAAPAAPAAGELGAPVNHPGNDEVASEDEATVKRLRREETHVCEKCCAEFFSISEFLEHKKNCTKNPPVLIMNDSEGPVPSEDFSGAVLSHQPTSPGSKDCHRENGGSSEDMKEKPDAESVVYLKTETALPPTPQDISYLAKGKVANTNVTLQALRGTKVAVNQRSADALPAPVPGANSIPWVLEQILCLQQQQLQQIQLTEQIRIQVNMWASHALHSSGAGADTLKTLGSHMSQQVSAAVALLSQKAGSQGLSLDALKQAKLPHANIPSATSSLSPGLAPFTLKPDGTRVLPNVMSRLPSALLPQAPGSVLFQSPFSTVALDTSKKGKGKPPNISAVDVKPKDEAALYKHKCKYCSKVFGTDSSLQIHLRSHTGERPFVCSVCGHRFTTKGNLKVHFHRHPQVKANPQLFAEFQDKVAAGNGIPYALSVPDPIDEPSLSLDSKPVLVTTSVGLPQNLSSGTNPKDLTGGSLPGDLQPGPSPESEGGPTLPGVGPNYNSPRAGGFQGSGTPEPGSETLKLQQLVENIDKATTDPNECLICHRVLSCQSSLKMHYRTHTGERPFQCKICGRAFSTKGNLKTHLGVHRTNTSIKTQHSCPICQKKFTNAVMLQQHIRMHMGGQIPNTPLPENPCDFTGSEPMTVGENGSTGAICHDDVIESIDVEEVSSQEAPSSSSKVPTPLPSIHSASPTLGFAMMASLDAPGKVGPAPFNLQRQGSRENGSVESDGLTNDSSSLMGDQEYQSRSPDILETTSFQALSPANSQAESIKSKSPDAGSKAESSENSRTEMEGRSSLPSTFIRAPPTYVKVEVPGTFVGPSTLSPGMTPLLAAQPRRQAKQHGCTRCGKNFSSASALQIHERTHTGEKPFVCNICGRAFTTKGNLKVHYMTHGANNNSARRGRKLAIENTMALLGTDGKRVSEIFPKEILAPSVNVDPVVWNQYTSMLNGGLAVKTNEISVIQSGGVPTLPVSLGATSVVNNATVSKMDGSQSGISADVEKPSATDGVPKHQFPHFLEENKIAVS
Method: universal PBM
Form: double-stranded DNA, one strand shown
Sample: in vitro
Concentration: 600 nM
Notes: 8-mer, flanks averaged, mean of replicates
Reading: higher = stronger binding
Strand | E-score
ATGAGCGC | -0.0677
ATGGCGCG | -0.096
ACCGCGTG | -0.381
GAGCTTTA | 0.0557
CCGTTTGA | -0.155
CTGTAATC | 0.0698
AACAGTTC | 0.13
GGCGCAAC | -0.218
TCCGTTAA | 0.0123
ATGGAACG | -0.106
CACTTCCC | -0.23
CTGGGGTC | -0.266
ACAGTCCT | -0.0461
CTAATGCA | 0.235
CTTATTGC | 0.0352
CTTGCAGC | -0.157
CCAGCAGG | -0.329
GTATAGGA | 0.126
AAAACGAT | 0.244
AAAGTACC | 0.0461
AACGTTCT | 0.0372
AGCAGGAG | -0.0273
ATTCAACC | -0.0224
CGGCCCTC | -0.433
ACGCCAGG | -0.213

Set 3
Target: CCNB2, cyclin fold, Cln2 fusion (human)
Method: yeast growth competition, sequencing
Sample: yeast
Notes: weak parent motif
Relative to: not given
Reading: higher = stronger binding
Starting sequence: PKN2 docking peptide (human); VSAVQKLDFSDTM; partner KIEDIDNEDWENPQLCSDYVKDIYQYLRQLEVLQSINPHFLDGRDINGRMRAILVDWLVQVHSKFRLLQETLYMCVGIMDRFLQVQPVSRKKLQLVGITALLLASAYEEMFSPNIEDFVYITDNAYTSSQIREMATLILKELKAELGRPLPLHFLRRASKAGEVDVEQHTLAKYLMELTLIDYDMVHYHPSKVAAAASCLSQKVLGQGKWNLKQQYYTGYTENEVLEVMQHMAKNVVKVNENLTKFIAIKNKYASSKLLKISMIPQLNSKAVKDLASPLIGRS
Variant | normalised enrichment score
VHAVQKLDFSDTM [S2H] | -0.352
VSAVQKADFSDTM [L7A] | -0.161
VCAVQKLDFSDTM [S2C] | 0.148
VSAVQKPDFSDTM [L7P] | -0.505
VSAVQKLDSSDTM [F9S] | 0.204
VSAVQKLDFMDTM [S10M] | -0.261
VNAVQKLDFSDTM [S2N] | -0.157
VSAKQKLDFSDTM [V4K] | -0.083
VSWVQKLDFSDTM [A3W] | 0.112
VSAVQKLDESDTM [F9E] | -0.447
VSAVQKLDFSDTQ [M13Q] | -0.045
VSAVQKNDFSDTM [L7N] | -0.357
VSAVQKLDRSDTM [F9R] | 0.397
VSAMQKLDFSDTM [V4M] | 0.0974
VSAVQKLDFSITM [D11I] | -0.625
DSAVQKLDFSDTM [V1D] | -0.133
VSAVQKLDFGDTM [S10G] | 0.217
VSKVQKLDFSDTM [A3K] | -0.416
VSAVQKLDFSDTE [M13E] | 0.672
VSHVQKLDFSDTM [A3H] | 0.178
VSAPQKLDFSDTM [V4P] | -0.185
VSAVQKLDWSDTM [F9W] | -0.612
VSANQKLDFSDTM [V4N] | -0.615
VDAVQKLDFSDTM [S2D] | -0.156
VSAVQKLDFSDAM [T12A] | 0.266

Set 4
Target: TAR DNA-binding protein 43, full length, His tag (TARDBP, Homo sapiens, UniProt Q13148, residues 1-414)
Method: RNA Bind-n-Seq
Form: RNA
Sample: in vitro
Concentration: 20 nM
Notes: 6-mer, flanks averaged, single round
With: 150 mM KCl
Relative to: input library
Reading: higher = stronger binding
Strand | 6-mer enrichment (R)
AUGGUC | 0.721
UUCUAU | 0.552
CGAUCC | 0.602
ACUAUA | 0.629
CGCCUU | 0.654
CUGGGC | 1.86
CAUCGU | 0.6
CCACGA | 0.684
UUCAUA | 0.549
AAUCAC | 0.585
CCCGGC | 0.783
CGUGUC | 0.758
ACUUCU | 0.552
GUCACA | 0.692
CUCUCG | 0.585
GGCAAC | 1.12

Set 5
Target: RNA binding protein fox-1 homolog 2, RRM domain, GST-SBP tag (RBFOX2, Homo sapiens, UniProt O43251-10, residues 100-194)
Method: RNA Bind-n-Seq
Form: RNA
Sample: in vitro
Concentration: 365 nM
Notes: natural RNA segment, single round, ends assumed
Relative to: no-protein control
Reading: higher = stronger binding
Constant ends, left off below: GGGAGUUCUACAGUCCGACGAUC … UGGAAUUCUCGGGUGCCAA
Residues (chain): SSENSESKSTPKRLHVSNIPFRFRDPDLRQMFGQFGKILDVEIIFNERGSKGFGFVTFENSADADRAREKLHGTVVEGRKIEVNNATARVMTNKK
Strand | RBNS enrichment (R)
ACCUGUUUUCUGAGCUGGCUGACUUGCCAGCCACAAGCUGCUCUUGCAGAGUUCUUACCAUUCCUGUAAAUGUUUUGACUUGUUGCAGAAAUUCCUAUCUACUUUAUUAA | 0.661
AAGGAAUUCACACACGACAGUUGACAGGUCUUCACGCAGGCUGGUUGGUAACGUGCUGCCAGCACAGGGCUGGGUGAUACGUACACCCUAAGCCGGGGGUGCCUGGGGCU | 0.29
UCCCAGAAUGGUGUAAAUACUUCUUUUCAAUGUUGUGACCAAGUAUUGUCACUCAGCCAACAACUUUUCCACACCUGGGGGUUGGUGGCUGUUCUUACUGUCCAAAUGAA | 0.267
AGGAGGAGGACUGGCUGCCUCCAUUUUGCCUUGUUUGUUAGUUUGCCUGGGUCUGUCUGAGGAAGGAGGGGGUCCCGCCUUCCACCUCAACACAUCCCUUCAGUGACUCA | 1.53
UCCAGCCUGGUGACAGAGCAAGACUCCAUCUCAAAAAAAAUCUAAGCAAACUAUCUUUGAGUCAAAAAAAGUUGGAUAACUCAUCUAUAUUUGAAAUAAUGCUGUCUGAA | 0.646
AGCUGUUUUAAAAUUAUGUAAAUAAGUCACAGGCUAGUUAUUUGAAAACUCUAAGUCACUUUAAUUUUGUCAGAAUCUUCUCUUACUAGGUAGGCCCAGGAUGUUCCAUA | 0.467
UUACCGGUUGAUUGAAAUAUCAGUUAAAGGUUGCCAGCAUGGUUGCAGAUAAACUGAUGUUUGAAAUUCGCUGAAAUACUUAAUGUGGAAUAGGAUAAUAUACUUCCAAU | 0.24
AUAUAGAUGGAAAUAUACUUUAUAUUUUGUAUCAUCGUGCCUAUAGCCGCUGCCACCGUGUAUAAAUCCUGGUGUAUGCUCCUUAUCCUGGACAUGAAUGUAUUGUACAC | 0.819
AACAUGCAGUCCUCUAGUGUUUCAUGUACAUUCUGUGGGGGGUGAACACCUUGGUUCUGGUUAAACAGCUGUACUUUUGAUAGCUGUGCCAGGAAGGGUUAGGACCAACU | 0.254
UUGAGUUCAAGUGAAAGAUUCUUCCAGGGUUUUAUUUUUUCCCCUCCUAACAAAGUCUCAUAGUGUUAACACUGGUUCUGCAAUAUCUCUGAGGUGCAAAGAAUGCACUU | 0.804
UUACAUGCAUUGUAAUUCUGCUUUGUCUAUAAGAUAUGGUCAAGUACAGCUCUGUGAAAGUUCUGAUUCUCUUCCUUCCCUGUUUGUCAAUGUUUUAUUCUGAAGUAAAC | 0.69
UUUUUUUGAACAAAAUGACUGGCUUUGACAAAACUAUCUUGCUCUUUUUAAAUGUCACUUGAUACUAGAAUGCGAUUUAAAAGCAUGUAAUGCCUCAGGAGUCCGGCAUA | 1.22

For quick reference, copied from above (set 2):
Strand | E-score
CTAATGCA | 0.235
CTTATTGC | 0.0352
CTTGCAGC | -0.157
CCAGCAGG | -0.329
GTATAGGA | 0.126
AAAACGAT | 0.244
AAAGTACC | 0.0461
